Measurements of several laboratories.
A part holds a random share of what one study measured. Numbers after ± are the reported error.
Sequence of UniProt P10275 (whole entry, looked up): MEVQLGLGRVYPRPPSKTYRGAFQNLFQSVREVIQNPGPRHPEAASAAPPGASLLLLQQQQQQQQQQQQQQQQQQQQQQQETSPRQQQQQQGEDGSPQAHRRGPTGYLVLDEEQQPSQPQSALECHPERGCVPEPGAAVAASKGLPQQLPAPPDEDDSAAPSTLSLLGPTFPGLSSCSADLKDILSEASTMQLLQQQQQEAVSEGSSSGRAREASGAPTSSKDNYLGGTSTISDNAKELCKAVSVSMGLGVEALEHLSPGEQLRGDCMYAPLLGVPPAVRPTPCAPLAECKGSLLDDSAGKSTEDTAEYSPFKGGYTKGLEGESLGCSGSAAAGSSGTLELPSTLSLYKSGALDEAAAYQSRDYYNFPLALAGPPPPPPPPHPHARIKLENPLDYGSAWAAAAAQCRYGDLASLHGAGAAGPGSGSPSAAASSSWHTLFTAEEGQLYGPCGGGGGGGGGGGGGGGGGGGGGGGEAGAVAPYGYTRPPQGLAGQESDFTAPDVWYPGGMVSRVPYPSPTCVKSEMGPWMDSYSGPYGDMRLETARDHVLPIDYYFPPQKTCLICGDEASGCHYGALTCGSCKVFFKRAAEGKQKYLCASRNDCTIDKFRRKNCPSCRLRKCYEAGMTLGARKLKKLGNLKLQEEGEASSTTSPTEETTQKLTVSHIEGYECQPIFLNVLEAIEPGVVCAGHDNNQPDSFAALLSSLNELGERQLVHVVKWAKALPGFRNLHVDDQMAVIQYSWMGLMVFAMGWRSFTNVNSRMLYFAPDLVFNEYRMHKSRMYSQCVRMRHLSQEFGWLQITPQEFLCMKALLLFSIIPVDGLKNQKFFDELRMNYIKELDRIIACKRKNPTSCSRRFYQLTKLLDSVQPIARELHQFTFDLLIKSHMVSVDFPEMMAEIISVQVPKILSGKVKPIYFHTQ
Sequence of UniProt P28887 (whole entry, looked up): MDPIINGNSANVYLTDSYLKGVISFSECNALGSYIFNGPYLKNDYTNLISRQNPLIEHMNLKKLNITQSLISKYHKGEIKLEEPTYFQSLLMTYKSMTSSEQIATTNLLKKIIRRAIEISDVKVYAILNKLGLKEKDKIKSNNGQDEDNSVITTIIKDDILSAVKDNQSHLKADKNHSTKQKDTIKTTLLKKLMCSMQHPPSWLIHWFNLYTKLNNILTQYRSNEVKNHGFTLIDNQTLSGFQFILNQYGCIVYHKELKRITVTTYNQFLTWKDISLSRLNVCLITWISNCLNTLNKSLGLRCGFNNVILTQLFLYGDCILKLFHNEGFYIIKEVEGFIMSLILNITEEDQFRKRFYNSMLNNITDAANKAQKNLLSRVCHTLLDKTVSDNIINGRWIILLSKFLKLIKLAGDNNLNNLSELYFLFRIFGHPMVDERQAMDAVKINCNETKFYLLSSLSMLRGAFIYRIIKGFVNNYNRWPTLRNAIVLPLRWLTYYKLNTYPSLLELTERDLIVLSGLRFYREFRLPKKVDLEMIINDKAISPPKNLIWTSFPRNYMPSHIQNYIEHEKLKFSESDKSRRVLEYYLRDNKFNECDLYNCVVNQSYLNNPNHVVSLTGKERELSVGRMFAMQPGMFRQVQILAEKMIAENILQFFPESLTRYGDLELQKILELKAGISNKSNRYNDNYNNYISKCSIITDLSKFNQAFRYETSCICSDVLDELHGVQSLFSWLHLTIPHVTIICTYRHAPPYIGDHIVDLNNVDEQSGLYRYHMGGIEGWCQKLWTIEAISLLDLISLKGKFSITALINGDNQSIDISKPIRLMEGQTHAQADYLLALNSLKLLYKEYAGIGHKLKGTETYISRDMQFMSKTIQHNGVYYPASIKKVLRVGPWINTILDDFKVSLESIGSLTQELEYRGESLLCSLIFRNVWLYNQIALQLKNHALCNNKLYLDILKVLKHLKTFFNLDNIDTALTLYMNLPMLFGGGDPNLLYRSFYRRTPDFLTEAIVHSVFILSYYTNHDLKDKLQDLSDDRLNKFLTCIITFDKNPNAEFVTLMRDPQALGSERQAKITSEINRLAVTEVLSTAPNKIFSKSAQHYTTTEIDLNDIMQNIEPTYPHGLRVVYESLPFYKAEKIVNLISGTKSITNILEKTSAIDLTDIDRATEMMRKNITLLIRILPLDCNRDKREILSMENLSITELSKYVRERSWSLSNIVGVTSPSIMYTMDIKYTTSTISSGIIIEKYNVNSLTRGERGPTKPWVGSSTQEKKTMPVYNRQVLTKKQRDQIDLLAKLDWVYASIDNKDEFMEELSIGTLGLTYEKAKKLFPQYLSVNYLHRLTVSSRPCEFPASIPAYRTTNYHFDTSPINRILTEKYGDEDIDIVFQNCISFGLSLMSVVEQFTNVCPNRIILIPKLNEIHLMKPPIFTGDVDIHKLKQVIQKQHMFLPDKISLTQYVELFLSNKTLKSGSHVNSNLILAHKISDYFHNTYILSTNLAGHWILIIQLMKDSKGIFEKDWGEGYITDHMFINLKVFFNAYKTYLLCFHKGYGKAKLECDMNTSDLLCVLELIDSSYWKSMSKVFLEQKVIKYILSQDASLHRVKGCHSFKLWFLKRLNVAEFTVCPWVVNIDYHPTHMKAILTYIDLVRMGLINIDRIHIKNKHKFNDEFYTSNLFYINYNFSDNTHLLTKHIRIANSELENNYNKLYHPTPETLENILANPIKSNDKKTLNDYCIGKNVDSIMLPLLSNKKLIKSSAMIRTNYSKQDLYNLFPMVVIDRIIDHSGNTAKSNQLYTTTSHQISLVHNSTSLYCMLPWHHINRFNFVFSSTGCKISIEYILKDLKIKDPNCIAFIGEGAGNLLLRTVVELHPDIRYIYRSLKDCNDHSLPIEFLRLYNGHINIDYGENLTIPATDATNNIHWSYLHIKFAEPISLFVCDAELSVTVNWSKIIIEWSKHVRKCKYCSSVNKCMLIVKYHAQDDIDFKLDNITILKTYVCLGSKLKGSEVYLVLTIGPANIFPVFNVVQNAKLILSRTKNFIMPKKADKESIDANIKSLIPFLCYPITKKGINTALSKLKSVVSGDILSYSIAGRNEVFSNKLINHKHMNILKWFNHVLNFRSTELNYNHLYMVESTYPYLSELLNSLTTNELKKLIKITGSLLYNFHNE

Series 1
Target: Phosphatidylinositol 3,4,5-trisphosphate 5-phosphatase 1, Ptase-C2 domains (INPP5D, Homo sapiens, UniProt Q92835)
Effect on: enzyme activity
With: PtdIns(3,4,5)P3-diC8
Baseline: SHIP1 over SHIP2
Quantity: selectivity ratio
Target sequence (Q92835 395-898): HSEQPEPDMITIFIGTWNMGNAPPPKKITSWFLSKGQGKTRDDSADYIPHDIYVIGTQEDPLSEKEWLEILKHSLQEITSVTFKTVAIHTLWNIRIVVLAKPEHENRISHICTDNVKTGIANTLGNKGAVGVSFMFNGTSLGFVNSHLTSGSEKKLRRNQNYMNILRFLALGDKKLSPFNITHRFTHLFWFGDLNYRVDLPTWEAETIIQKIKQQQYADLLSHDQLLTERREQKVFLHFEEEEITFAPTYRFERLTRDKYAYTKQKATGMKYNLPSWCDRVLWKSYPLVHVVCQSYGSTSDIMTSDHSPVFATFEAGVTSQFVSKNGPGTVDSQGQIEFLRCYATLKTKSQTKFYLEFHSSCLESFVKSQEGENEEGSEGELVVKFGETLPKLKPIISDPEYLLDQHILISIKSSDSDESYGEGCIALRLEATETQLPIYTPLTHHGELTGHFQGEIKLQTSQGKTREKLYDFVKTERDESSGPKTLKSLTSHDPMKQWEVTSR
Cc1cc(N2CCNCC2)nc(C#N)n1: 1.8
O=C(NCc1c(F)cccc1F)c1sccc1OCc1ccc(Cl)cc1Cl: > 24
Cc1oc(-c2ccccc2Cl)nc1Cn1cccc1C1=N[C@@H](c2ccccc2)CO1: 18.5
N#Cc1nccc(N2CCNCC2)n1: 4.3
CSc1ccc2c(c1)c(CCN)c(C)n2Cc1ccc(Cl)cc1: > 3
C=CC(=O)c1nc(C#N)ccc1N1CCCOCC1: > 7
CC[C@H]1CC[C@H]2[C@@H]3C[C@@H](O)[C@@]4(O)C[C@H](N)CC[C@]4(C)[C@H]3CC[C@]12C: 1.2

Single results of other studies
CDK9 with cyclin K: Cyclin-dependent kinase 9, with cyclin K (CDK9, Homo sapiens, UniProt P50750)
Sequence of UniProt P50750 (whole entry, looked up): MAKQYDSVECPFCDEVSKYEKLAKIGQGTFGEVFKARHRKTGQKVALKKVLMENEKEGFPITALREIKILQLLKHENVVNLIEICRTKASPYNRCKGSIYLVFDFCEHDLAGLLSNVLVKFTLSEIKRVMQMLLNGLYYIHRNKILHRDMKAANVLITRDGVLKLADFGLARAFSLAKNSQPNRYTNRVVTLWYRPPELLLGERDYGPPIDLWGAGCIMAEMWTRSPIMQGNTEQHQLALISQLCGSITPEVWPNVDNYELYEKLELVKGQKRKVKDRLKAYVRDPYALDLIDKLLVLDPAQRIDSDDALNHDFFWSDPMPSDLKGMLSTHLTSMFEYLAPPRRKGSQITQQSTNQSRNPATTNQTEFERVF
COCCCNC(=O)c1ccc(Cn2c(=O)c3ccccc3n(Cc3ccc(C(C)C)cc3)c2=O)cc1 — EC50 (RNA-directed RNA polymerase L (Human respiratory syncytial virus A, UniProt P28887)): 1.2 µM
COc1ccc2nc3n(c2c1)C(C)(C)NC(N)=N3 — CC50 (THP-1-derived macrophages; 72 h, max 1% DMSO): > 100 µM
O=c1cc(-c2cccc(O)c2)oc2c1ccc1occc12 — IC50 (CDK9 with cyclin K; inhibitor): 1.99 ± 0.49 µM
CC1(C)NC(N)=Nc2nc3ccc(C(F)(F)F)cc3n21 — CC50 (THP-1-derived macrophages; 72 h, max 1% DMSO): > 100 µM
O=c1cc(-c2ccc(O)cc2)oc2c1ccc1occc12 — IC50 (CDK9 with cyclin K; inhibitor): 1.86 ± 0.46 µM
O=C(N/N=C/c1cccc(O)c1O)c1cc2ccccc2cc1O — IC50 (Androgen receptor (AR, Homo sapiens, UniProt P10275); inhibitor): 50 to 100 µM
CC(=O)N[C@@H](Cc1ccc(OP(=O)(O)O)cc1)C(=O)N[C@H](C(=O)N1CCC[C@H]1C(=O)N1C[C@@H]2[C@@H](C(=O)O)[C@@H]2[C@H]1C(=O)N1CCC[C@H]1C(N)=O)[C@@H](C)O — Ki (E3 ubiquitin-protein ligase CBL, TKB domain (CBL, Homo sapiens, UniProt P22681)): 15.2 µM
